{"data": "Literature values that unrelated publications cite", "note": "Numbered parts are unrelated; values within a part may stem from several laboratories."}
{"data": "Sample 1", "target": "dopamine transporter"}
{"SMILES": "COc1ccc2c(c1)c(CC(=O)O)c(C)n2C(=O)c1ccc(Cl)cc1", "IC50 [µM]": "> 10"}
{"SMILES": "CCN(CC)CC(=O)Nc1c(C)cccc1C", "IC50 [µM]": "> 10"}
{"SMILES": "Nc1nnc(-c2cccc(Cl)c2Cl)c(N)n1", "IC50 [µM]": "> 10"}
{"data": "Sample 2", "organism": "Plasmodium falciparum", "concentration": "concentration not given"}
{"SMILES": "Cc1nc2n(c(=O)c1CCN1CCC(c3noc4cc(F)ccc34)CC1)CCCC2", "activity": "active"}
{"SMILES": "CC(C)(C)NC[C@H](O)COc1nsnc1N1CCOCC1", "activity": "active"}
{"SMILES": "CNCCCN1c2ccccc2CCc2ccccc21", "activity": "active"}
{"SMILES": "OCCN(CCO)c1nc(N2CCCCC2)c2nc(N(CCO)CCO)nc(N3CCCCC3)c2n1", "activity": "active"}
{"SMILES": "CC(C)NCC(O)COc1cccc2ccccc12.Cl (stereo not drawn)", "activity": "active"}
{"SMILES": "CN(C)CC[C@@H](c1ccc(Cl)cc1)c1ccccn1", "activity": "active"}
{"SMILES": "Oc1ccc(/C=C/c2cc(O)cc(O)c2)cc1", "activity": "active"}
{"SMILES": "COc1ccc(Cl)cc1C(=O)NCCc1ccc(S(=O)(=O)NC(=O)NC2CCCCC2)cc1", "activity": "active"}
{"SMILES": "CN1CCC(=C2c3ccccc3CC(=O)c3sccc32)CC1", "activity": "active"}
{"SMILES": "CN(C)CCOC(C)(c1ccccc1)c1ccccn1 (stereo not drawn)", "activity": "active"}
{"SMILES": "Oc1c(Cl)cc(Cl)c(Cl)c1Cc1c(O)c(Cl)cc(Cl)c1Cl", "activity": "active"}
{"SMILES": "CCCC1O[C@@H]2C[C@H]3[C@@H]4CCC5=CC(=O)C=C[C@]5(C)[C@H]4[C@@H](O)C[C@]3(C)[C@]2(C(=O)CO)O1 (stereo partly drawn)", "activity": "active"}
{"SMILES": "CC(C)[N+](C)(CCOC(=O)C1c2ccccc2Oc2ccccc21)C(C)C", "activity": "active"}
{"SMILES": "CSc1ccc2c(c1)N(CCC1CCCCN1C)c1ccccc1S2 (stereo not drawn)", "activity": "active"}
{"SMILES": "CN1CCN(CCCN2c3ccccc3Sc3ccc(Cl)cc32)CC1", "activity": "active"}
{"SMILES": "CC(CCc1ccccc1)NCC(O)c1ccc(O)c(C(N)=O)c1 (stereo not drawn)", "activity": "active"}
{"SMILES": "CN(C)CCC=C1c2ccccc2COc2ccccc21", "activity": "active"}
{"SMILES": "CN(C)CC[C@@H](c1ccc(Br)cc1)c1ccccn1", "activity": "active"}
{"SMILES": "CC(C)c1ccc2c(c1)c(SC(C)(C)C)c(CC(C)(C)C(=O)O)n2Cc1ccc(Cl)cc1", "activity": "active"}
{"SMILES": "CC(C)NCC(O)c1ccc(O)c(O)c1.Cl (stereo not drawn)", "activity": "active"}
{"SMILES": "CCN(CC)C(=S)SSC(=S)N(CC)CC", "activity": "active"}
{"SMILES": "Nc1nc(N)c2nc(-c3ccccc3)c(N)nc2n1", "activity": "active"}
{"SMILES": "CC12CC3CC(C)(C1)CC(N)(C3)C2", "activity": "active"}
{"SMILES": "CN(C)CCCC1(c2ccc(F)cc2)OCc2cc(C#N)ccc21 (stereo not drawn)", "activity": "active"}
{"SMILES": "COc1cc2nc(N3CCN(C(=O)c4ccco4)CC3)nc(N)c2cc1OC", "activity": "active"}
{"data": "Other studies, line by line", "PTGS2": "Prostaglandin G/H synthase 2 (PTGS2, Homo sapiens, UniProt P35354)", "chain of UniProt P35354 (whole entry, looked up)": "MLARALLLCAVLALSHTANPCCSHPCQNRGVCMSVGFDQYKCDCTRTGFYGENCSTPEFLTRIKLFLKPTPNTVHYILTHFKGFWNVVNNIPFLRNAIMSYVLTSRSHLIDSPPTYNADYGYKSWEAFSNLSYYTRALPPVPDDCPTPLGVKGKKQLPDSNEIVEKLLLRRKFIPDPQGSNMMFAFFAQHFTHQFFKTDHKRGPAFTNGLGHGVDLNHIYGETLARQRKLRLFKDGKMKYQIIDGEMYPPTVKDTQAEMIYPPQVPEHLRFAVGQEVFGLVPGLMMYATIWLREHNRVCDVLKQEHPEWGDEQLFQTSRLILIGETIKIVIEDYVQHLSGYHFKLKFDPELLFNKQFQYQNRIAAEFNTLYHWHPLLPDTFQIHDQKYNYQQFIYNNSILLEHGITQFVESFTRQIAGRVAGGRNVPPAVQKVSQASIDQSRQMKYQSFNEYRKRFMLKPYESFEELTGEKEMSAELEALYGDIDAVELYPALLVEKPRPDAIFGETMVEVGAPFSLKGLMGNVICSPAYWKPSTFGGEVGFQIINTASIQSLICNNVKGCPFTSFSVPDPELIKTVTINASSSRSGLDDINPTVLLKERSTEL"}
{"SMILES": "O=C(NCCCC1CCCCC1)c1ccc(CNC(=O)c2cnn(-c3ccccc3)c2C(F)(F)F)cc1", "target or system": "human MAPK14", "assay": "cell-based", "measurement": "IC50", "value": "13 µM"}
{"SMILES": "NC(=S)NN=Cc1ncccc1N", "test system": "human, serum", "setting": "intravenous infusion, 2 h infusion", "measurement": "Tmax", "value": "1 to 2 h"}
{"SMILES": "C=CC(=O)Nc1cc(Nc2ncc(C(=O)OC(C)C)c(-c3cn(C)c4ccccc34)n2)c(OC)cc1N(C)CCN(C)C", "target or system": "human BLK", "assay": "kinase activity, inhibitor", "measurement": "IC50", "value": "< 0.002 µM"}
{"SMILES": "CNCc1ccc(-c2cc(-c3nc(-c4ccc(S(=O)(=O)C(C)C)cc4)cnc3N)on2)cc1", "test system": "mouse, plasma", "measurement": "unbound fraction", "value": "3%"}
{"SMILES": "Nc1ccccc1NC(=O)c1ccc(CNc2nccc(-c3cccnc3)n2)cc1", "target or system": "HDAC6", "assay": "enzyme activity, inhibitor", "measurement": "IC50", "value": "inactive"}
{"SMILES": "CCCCCCCCNC(C)C(O)c1ccc(SC(C)C)cc1 (stereo not drawn)", "target or system": "MCF7", "assay": "microarray, measured: BTG1", "setting": "concentration not given", "scale": "reference: DMSO", "measurement": "mRNA fold change", "value": 1.7}
{"SMILES": "C=CC[C@@H]1/C=C(\\C)C[C@H](C)C[C@H](OC)[C@H]2O[C@@](O)(C(=O)C(=O)N3CCCC[C@H]3C(=O)O[C@H](/C(C)=C/[C@@H]3CC[C@@H](O)[C@H](OC)C3)[C@H](C)[C@@H](O)CC1=O)[C@H](C)C[C@@H]2OC", "test system": "healthy human subjects", "setting": "oral, 5 mg single dose", "measurement": "half-life", "value": "40.4 h"}
{"SMILES": "CCS(=O)(=O)N(C)[C@H]1c2cc(C#N)ccc2OC(C)(C)[C@@H]1O (racemic)", "target or system": "Kv7.1 potassium channel", "assay": "manual patch clamp", "setting": "10 µM", "measurement": "inhibition", "value": "43.2%"}
{"SMILES": "COc1cc(C=CC(=O)O)cc(OC)c1O", "target or system": "PTGS2", "assay": "inhibitor", "measurement": "IC50", "value": "18.3 µM"}
{"SMILES": "CC(=O)O[C@H]1CC[C@]2(C)[C@H]3CC[C@]4(C)C(=CC[C@@]5(C(=O)O)CCC(C)(C)C[C@H]54)[C@]3(C)CC[C@H]2C1(C)C", "target or system": "HeLa", "assay": "cell growth", "measurement": "IC50", "value": "35.7 µg/mL"}
{"SMILES": "COc1ccccc1OCC(O)CN1CCN(CC(=O)Nc2c(C)cccc2C)CC1 (stereo not drawn)", "assay": "field potential duration", "measurement": "FPD prolongation concentration", "value": "3 to 30 µM"}
{"SMILES": "CCNc1nc(Cl)nc(NC(C)C)n1", "target or system": "MDR1 (P-glycoprotein), mouse", "test system": "B16/F10 melanoma", "setting": "concentration not given", "measurement": "inhibition", "value": "no inhibition"}
{"SMILES": "CC(C)C[C@H](NC(=O)[C@H](CCc1ccccc1)NC(=O)CN1CCOCC1)C(=O)N[C@@H](Cc1ccccc1)C(=O)N[C@@H](CC(C)C)C(=O)[C@@]1(C)CO1", "test system": "human patients", "setting": "dose not given", "measurement": "patients with cardiovascular effects", "value": "≤ 30%"}
{"SMILES": "CC(=O)N[C@@H](CS)C(=O)O", "test system": "human", "measurement": "intestinal first-pass extraction", "value": "68%"}
{"SMILES": "CC(COc1ccc(Oc2ccccc2)cc1)Oc1ccccn1 (stereo not drawn)", "target or system": "CYP6P3", "assay": "inhibitor", "measurement": "IC50", "value": "15.8 µM"}
{"SMILES": "CC[C@@H](CC[C@@H](C)[C@H]1CC[C@H]2[C@@H]3CC=C4C[C@@H](O)CC[C@]4(C)[C@H]3CC[C@]12C)C(C)C", "target or system": "HeLa", "assay": "cell growth", "measurement": "IC50", "value": "15.9 µg/mL"}
{"SMILES": "COc1ccc([C@@H](O)c2cc(-c3ncnc4cc(N5CCOCC5)ccc34)c(F)cc2Cl)nn1", "target or system": "protein kinase panel", "setting": "concentration not given", "measurement": "activity", "value": "inactive"}
{"SMILES": "CCCOC(=O)c1cc(O)c(O)c(O)c1", "target or system": "PTGS2", "assay": "inhibitor", "measurement": "IC50", "value": "16.7 µM"}
{"SMILES": "CN(C)CC/C=C1/c2ccccc2Sc2ccc(Cl)cc21", "target or system": "MCF7", "assay": "microarray, Connectivity Map, measured: INSIG1 mRNA", "setting": "concentration not given, 6 h", "scale": "reference: DMSO", "measurement": "fold change", "value": 2.09}
{"SMILES": "CC(=O)Nc1c(C(C)=O)c(=O)n(C)c2nc(-c3ccc(Cl)cc3Cl)c(-c3ccc(Cl)cc3)cc12", "target or system": "SLC18A2", "assay": "MSD Pharma Taiwan panel screen", "measurement": "Ki", "value": "0.648 µM"}
{"SMILES": "O=C(CCCCCCC(=O)Nc1ccccc1)NO", "measurement": "logP", "value": 1.04}
{"SMILES": "O=C(O)c1cc(-c2ccc(C3CCNCC3)cc2)c2ccc(-c3ccc(C(F)(F)F)cc3)cc2c1", "target or system": "MAPK14", "assay": "enzyme activity, Eurofins-Panlabs panel", "setting": "concentration not given", "measurement": "IC50", "value": "0.00294 µM"}
{"SMILES": "COc1cc(O)c2c(c1O)-c1nccc(C)c1C2=O", "target or system": "Plasmodium falciparum", "test system": "Dd2", "measurement": "IC50", "value": "11.4 µM"}
{"note": "Repeated from above (sample 2):"}
{"SMILES": "CC(C)c1ccc2c(c1)c(SC(C)(C)C)c(CC(C)(C)C(=O)O)n2Cc1ccc(Cl)cc1", "activity": "active"}
{"SMILES": "CC(C)(C)NC[C@H](O)COc1nsnc1N1CCOCC1", "activity": "active"}
{"SMILES": "CC12CC3CC(C)(C1)CC(N)(C3)C2", "activity": "active"}
